Experimental data pooled from the literature.
Protocols differ between the studies behind these lines.

| SMILES | test | test system | setting | adverse event incidence |
| --- | --- | --- | --- | --- |
| Cc1c(Cl)c(C)[n+]([O-])c(Cl)c1-c1noc(-c2cc(O)c(O)c([N+](=O)[O-])c2)n1 | refers to: Moderate severity | healthy Chinese subjects | oral, 100 mg | 0% |
| Cc1ccc(Sc2ccccc2N2CCNCC2)c(C)c1 | TEAE blood in urine | healthy adult men | oral, 5 mg single dose, 10 days | 0% |
| Cc1c(C(=O)O)ccc2c3n(nc12)[C@@H]1[C@H](C3)N(CC2CC2)[C@@]2(C(=O)Nc3cc(Cl)ccc32)[C@H]1c1cccc(Cl)c1F | phase Ia trial, refers to: Nausea | cancer patients | oral, dose not given, all patients all grades | 87% |
| CC(=O)O[C@H]1C(=O)[C@@]2(C)[C@H]([C@H](OC(=O)c3ccccc3)[C@]3(O)C[C@H](OC(=O)[C@H](O)[C@@H](NC(=O)c4ccccc4)c4ccccc4)C(C)=C1C3(C)C)[C@]1(OC(C)=O)CO[C@@H]1C[C@@H]2O | refers to: Alopecia | patients with advanced solid tumours | intravenous, dose not given, grade 3 and 4, possibly related to drug | 0% |
| O=C1CCc2ccc(OCCCCN3CCN(c4cccc(Cl)c4Cl)CC3)cc2N1 | refers to: Tremor | genotyped patients, CYP2D6 intermediate metabolizers | dose not given, long-acting oral or depot | 8.6% |
| CC(C)n1c(Nc2cccnc2)nc2cnc(Nc3ccc(N4CCN(C)CC4)cc3)nc21 | refers to: Hyperuricemia | healthy male subjects | oral, 100 mg, added: itraconazole | 14.3% |
| CNC(=O)c1ccc(-c2cnc3ncc(Cc4ccc5ncccc5c4)n3n2)cc1F | phase 1 clinical trial, refers to: blood bilirubin increased | other expansion cohort | oral, 600 mg twice daily, grade 3 or 4 | 0% |
| FC(F)(F)c1ccc(CNc2ccc(Cc3c[nH]c4ncc(Cl)cc34)cn2)cn1 | refers to: Vomiting | patients with advanced solid tumours | oral, dose not given, all grades, possibly related to drug | 26% |
| NCCONC(=O)[C@@H]1CC[C@@H]2CN1C(=O)N2OS(=O)(=O)O | refers to: urinary occult blood positive | healthy Chinese men | intravenous, 1 g, treatment-emergent | 0% |

Excerpt of the above:
| SMILES | test | test system | setting | adverse event incidence |
| --- | --- | --- | --- | --- |
| O=C1CCc2ccc(OCCCCN3CCN(c4cccc(Cl)c4Cl)CC3)cc2N1 | refers to: Tremor | genotyped patients, CYP2D6 intermediate metabolizers | dose not given, long-acting oral or depot | 8.6% |
